Results pooled from the literature.
Numbered parts are unrelated; each lists some results of a single study. Positions count from the first letter of the parent shown.

Sample 1
Target: Sal-like protein 4, full length isoform A (SALL4, Homo sapiens, UniProt Q9UJQ4, residues 1-1053)
UniProt Q9UJQ4, sequence (whole entry, looked up): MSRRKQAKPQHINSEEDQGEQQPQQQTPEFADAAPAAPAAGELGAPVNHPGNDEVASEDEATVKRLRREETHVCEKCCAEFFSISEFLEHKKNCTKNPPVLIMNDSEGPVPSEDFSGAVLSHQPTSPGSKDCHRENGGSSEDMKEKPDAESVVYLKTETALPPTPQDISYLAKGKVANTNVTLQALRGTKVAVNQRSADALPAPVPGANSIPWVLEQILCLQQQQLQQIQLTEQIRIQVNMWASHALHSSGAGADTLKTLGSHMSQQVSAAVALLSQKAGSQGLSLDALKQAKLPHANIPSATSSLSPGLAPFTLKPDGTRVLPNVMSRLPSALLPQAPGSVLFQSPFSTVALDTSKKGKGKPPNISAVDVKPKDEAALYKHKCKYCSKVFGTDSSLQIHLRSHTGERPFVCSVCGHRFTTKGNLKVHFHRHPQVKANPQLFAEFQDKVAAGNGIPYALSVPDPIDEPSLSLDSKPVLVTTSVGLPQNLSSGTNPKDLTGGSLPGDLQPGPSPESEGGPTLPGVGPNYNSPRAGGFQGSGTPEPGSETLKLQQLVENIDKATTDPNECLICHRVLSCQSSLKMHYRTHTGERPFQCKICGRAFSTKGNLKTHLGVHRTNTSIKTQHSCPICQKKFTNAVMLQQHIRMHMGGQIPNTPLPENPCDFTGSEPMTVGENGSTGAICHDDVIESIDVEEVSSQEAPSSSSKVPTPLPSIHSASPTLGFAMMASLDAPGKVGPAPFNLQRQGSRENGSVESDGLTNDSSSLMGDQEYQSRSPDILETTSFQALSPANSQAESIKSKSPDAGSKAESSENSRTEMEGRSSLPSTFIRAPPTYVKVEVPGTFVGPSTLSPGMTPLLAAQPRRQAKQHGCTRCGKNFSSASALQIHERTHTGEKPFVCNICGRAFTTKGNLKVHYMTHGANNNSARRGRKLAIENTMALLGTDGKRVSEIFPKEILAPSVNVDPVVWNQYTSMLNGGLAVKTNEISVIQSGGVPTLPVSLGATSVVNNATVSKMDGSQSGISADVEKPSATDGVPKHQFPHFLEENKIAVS
Method: universal PBM
Molecule type: double-stranded DNA, one strand shown
Sample: in vitro
Tested at: 600 nM
Notes: 8-mer, flanks averaged, mean of replicates
Reading: higher = stronger binding
Strand | E-score
AGAGTCAT | 0.106
GGCAGATA | -0.0859
GATAGTCA | 0.104
TAGGGTAA | 0.179
GGAATCTA | -0.00376
CGCCAGAA | -0.151
AGAGCTAC | -0.0542
CGGCAAGC | -0.261
ATGAGGTC | -0.137
CAACATTG | 0.184
ACCAAGAA | 0.0878
CTTGTTTA | 0.0968
AAACGATT | 0.206
ATTGCATC | 0.137
ACTTCACC | -0.0123
AAGCCAGA | -0.0828
CTACCCAC | -0.271
TAGCGACA | 0.0983
GCTGCCGA | -0.234
ACAGCACC | -0.258
CTATAGAG | 0.105
CACCCCGG | -0.33
CGAACCCC | -0.344
CTCGCTTA | 0.123
CACACTAG | -0.121

Sample 2
Target: RING finger protein unkempt homolog, zinc fingers 1-6, GST-SBP tag (UNK, Homo sapiens, UniProt Q9C0B0, residues 30-357)
Method: RNA Bind-n-Seq
Molecule type: RNA
Sample: in vitro
Tested at: not given
Notes: RNA with constant flanks, human and mouse sites, ends assumed
Baseline: input RNA pool
Reading: higher = stronger binding
Residues (chain): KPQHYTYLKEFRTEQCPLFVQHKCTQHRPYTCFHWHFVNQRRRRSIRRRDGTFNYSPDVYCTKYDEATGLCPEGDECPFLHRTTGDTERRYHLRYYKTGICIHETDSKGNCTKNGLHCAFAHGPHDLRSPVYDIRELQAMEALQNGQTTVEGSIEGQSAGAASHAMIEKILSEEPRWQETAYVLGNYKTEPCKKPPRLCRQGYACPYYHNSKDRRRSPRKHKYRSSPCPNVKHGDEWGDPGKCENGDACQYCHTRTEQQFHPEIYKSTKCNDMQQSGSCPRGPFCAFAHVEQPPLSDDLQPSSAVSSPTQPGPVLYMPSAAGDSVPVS
Strand | bound/input enrichment [ratio]
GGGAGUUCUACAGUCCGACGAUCAAAAGAAAUUUCCAGCUAACAUUUUUAAAUCAUGAUGUUGUCAAAAUCUCUCCAAAAUCAGUUAGAAAUAAGCUUUUGGAAAGUCAAAGUAAAAAGAAAAUUCAUGGAAAGAGGGUGACACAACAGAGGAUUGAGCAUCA | 1.56
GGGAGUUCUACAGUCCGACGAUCAAUAAAAUGUACAAAUUUGUUGUGUUUUUUUAUGUUCUAAUAAUACUGAGACUUCUAGGUCUUAGGUUAAUUUUUAGGAAGAUCUUGCAUGCCAUCAGGAGUAAAUUUUAUUGUGGUUCUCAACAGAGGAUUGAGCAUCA | 4.56
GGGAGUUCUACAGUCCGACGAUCUAUUCAAUGGAUUCACUUUCCAGUUGGUAUAUGACUGUCACACAGAAGACGGACCCAAAAAUGCUAAGCAAAAAAAGGACUACUUCUAGCCAAUGGCAGUCUCCUCCUGUUGUCGUUAUCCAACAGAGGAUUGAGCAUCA | 0.0737
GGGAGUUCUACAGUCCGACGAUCGAAUUACAGAAAAAGCAGGACCGACAGAACCACCAAGUAAAACCUGAAAAAAGGUUACUAAGUGAUGGACAACAGCACCUUACGGAAAGCCUGAGAGAAAAGUGCUCUAGAAUAAAAGAGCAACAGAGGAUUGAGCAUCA | 0.253
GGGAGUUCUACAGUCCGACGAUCAAUUUCCUGUCAUACUUUUUAGACAUUCACAUCAGACUUACAGAGCACCUGGCCACAUUCUAGGUUUGUGUUAUUUCUCAGCUAUGGAUAUGAUCAAAUGAGAACACUGCUUAACUAAUGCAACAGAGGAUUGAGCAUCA | 0.439
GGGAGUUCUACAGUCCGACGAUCCAGGGUAUUGCCGCUGUUCUAAUAUUUUUUUAAGCAUAGACAGACUUAUAAUUAAUAUACAUUAGUUAGUGGCGUUGAAACAGUCCUCUGAGACAUUAACUAUAAGACUGUGUUCUGUUUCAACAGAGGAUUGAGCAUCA | 0.823
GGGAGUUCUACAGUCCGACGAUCCAAGGCUGACAGUAACACUGAUGAAUGCUGAUAAUCAGGAAACAUGAAAGAAGCCAUUUGAUAGAUUAUUCUAAAGGAUAUCAUCAAGAAGACUAUUAAAAACACCUAUGCCUAUACUUUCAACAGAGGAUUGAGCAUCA | 0.125
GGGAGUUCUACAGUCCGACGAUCAUAAUGAAUAUUAAAUGAUUUUUCUUCAGUCACAGUGAGAGCAUCUUGCUUUGUGGUUGAAAUAGGUAGUGUAUGUCAGUCUUUGCUUUAGGCUGUUUCUCAUCUAAGUGUUUGAAUUAACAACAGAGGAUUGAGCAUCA | 8.39
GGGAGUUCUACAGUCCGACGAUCGUCCCCGACUCCUUCCUCCCCCUUCCCUCCCCCUUUUUUUUGUUUUCCGUUCCCCUUUCCCCUCCCUUCCCUAUCCCCGACGACCGGAUCCUGAGGAGGCAGCUGCGGUGGCAGCUGCUGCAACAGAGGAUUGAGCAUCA | 1.32
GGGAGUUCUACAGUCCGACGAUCUGGACAGAAAAGAUAAUGAAGCAGACCGAAGUGCUGUUGCAGCCAAAUCCAAAUGCCAGGAUAGAAGAAUUUGUUUAUGAGAAACUGGAUAGAAAAGCACCAAGUCGUAUAAACAACCCGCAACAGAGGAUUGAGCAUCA | 0.522
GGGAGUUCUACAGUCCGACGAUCGAUUUUGCCAUGCCCUAUUUCAUCCAGGUCAUGAAGGAGUACUUGACAAAGGUGGAUAAAUUAGAUGCUUCAGAAUCACUGAGAAAAGAAGAAGAACAAGCUACAGAGACACAACCCAUUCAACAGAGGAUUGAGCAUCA | 0.194

Sample 3
Target: CCND2, cyclin fold, Cln2 fusion (human)
Method: yeast growth competition, sequencing
Sample: yeast
Notes: weak parent motif
Baseline: not given
Reading: higher = stronger binding
Starting sequence: SAMHD1 docking peptide (human); ASKSRVQLFKDDP
Variant | normalised enrichment score
L8G | 0.364
D12S | -0.09
K3R | 0.129
F9T | 0.303
D12M | -0.0165
F9P | 0.543
D12P | -0.125
V6Y | 0.155
Q7Y | 0.0592
D11Y | 0.169
V6K | 0.294
V6L | 0.116
S2M | 0.124
S4M | 0.127
R5A | 0.415
D12A | 0.185
S2E | 0.312
V6H | -0.0837
S2Y | 0.126
K3D | 0.262
K3P | 0.276

Sample 4
Target: ABI1, truncated, D143A, DHFR fusion (Arabidopsis thaliana)
Method: DHFR PCA, deep sequencing
Sample: yeast
Notes: methotrexate growth selection, single substitutions
With: (+)-ABA 0.39 µM
Baseline: wild-type fitted maximum
Reading: higher = stronger binding
Starting sequence: PYL1, truncated, DHFR fusion (Arabidopsis thaliana); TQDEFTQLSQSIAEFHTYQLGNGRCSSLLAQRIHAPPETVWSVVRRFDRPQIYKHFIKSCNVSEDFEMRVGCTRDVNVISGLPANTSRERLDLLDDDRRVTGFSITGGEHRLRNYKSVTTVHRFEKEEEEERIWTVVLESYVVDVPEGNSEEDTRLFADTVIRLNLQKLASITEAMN
Variant | relative binding score [%]
A158P | -27.8
F157A | 7.55
T6C | 41.8
V100C | 6.83
I162K | -1.7
V44A | 13.7
A84D | 23.5
V100E | -3.47
Q7K | 36.8
V78K | 0.684
G108N | -10
E128I | 21.2
E130W | 4.22
N85A | 63.8
L169C | -2.27
E38N | -4.68
R99L | 66.9
C25Q | -6.81

Excerpt of the above (sample 2):
Strand | bound/input enrichment [ratio]
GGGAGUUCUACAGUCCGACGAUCAUAAUGAAUAUUAAAUGAUUUUUCUUCAGUCACAGUGAGAGCAUCUUGCUUUGUGGUUGAAAUAGGUAGUGUAUGUCAGUCUUUGCUUUAGGCUGUUUCUCAUCUAAGUGUUUGAAUUAACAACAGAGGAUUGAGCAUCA | 8.39
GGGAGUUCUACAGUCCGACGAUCUGGACAGAAAAGAUAAUGAAGCAGACCGAAGUGCUGUUGCAGCCAAAUCCAAAUGCCAGGAUAGAAGAAUUUGUUUAUGAGAAACUGGAUAGAAAAGCACCAAGUCGUAUAAACAACCCGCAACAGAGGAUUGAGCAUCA | 0.522
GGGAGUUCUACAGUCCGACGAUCAAAAGAAAUUUCCAGCUAACAUUUUUAAAUCAUGAUGUUGUCAAAAUCUCUCCAAAAUCAGUUAGAAAUAAGCUUUUGGAAAGUCAAAGUAAAAAGAAAAUUCAUGGAAAGAGGGUGACACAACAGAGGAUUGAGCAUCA | 1.56
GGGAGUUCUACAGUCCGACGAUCCAAGGCUGACAGUAACACUGAUGAAUGCUGAUAAUCAGGAAACAUGAAAGAAGCCAUUUGAUAGAUUAUUCUAAAGGAUAUCAUCAAGAAGACUAUUAAAAACACCUAUGCCUAUACUUUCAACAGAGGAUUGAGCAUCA | 0.125
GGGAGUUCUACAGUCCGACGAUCAAUUUCCUGUCAUACUUUUUAGACAUUCACAUCAGACUUACAGAGCACCUGGCCACAUUCUAGGUUUGUGUUAUUUCUCAGCUAUGGAUAUGAUCAAAUGAGAACACUGCUUAACUAAUGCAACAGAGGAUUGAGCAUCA | 0.439
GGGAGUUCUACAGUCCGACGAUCCAGGGUAUUGCCGCUGUUCUAAUAUUUUUUUAAGCAUAGACAGACUUAUAAUUAAUAUACAUUAGUUAGUGGCGUUGAAACAGUCCUCUGAGACAUUAACUAUAAGACUGUGUUCUGUUUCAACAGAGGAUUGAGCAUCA | 0.823
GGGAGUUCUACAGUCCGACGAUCAAUAAAAUGUACAAAUUUGUUGUGUUUUUUUAUGUUCUAAUAAUACUGAGACUUCUAGGUCUUAGGUUAAUUUUUAGGAAGAUCUUGCAUGCCAUCAGGAGUAAAUUUUAUUGUGGUUCUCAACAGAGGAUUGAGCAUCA | 4.56
